# Results gathered from unrelated publications.
# A part holds a random share of what one study measured. Substitutions count along the parent as printed.

# Block 1
# Target: Hepatocyte nuclear factor 3-alpha (Foxa1, Mus musculus, UniProt P35582, residues 1-468, full length assumed)
# Method: EMSA with sequencing
# Molecule type: double-stranded DNA, one strand shown
# Sample: in vitro
# Concentration: 10 and 20 nM
# Notes: whole designed probe, mean of two concentrations, ends assumed
# Baseline: negative control set to 0
# Reading: higher = stronger binding
# Target sequence (chain): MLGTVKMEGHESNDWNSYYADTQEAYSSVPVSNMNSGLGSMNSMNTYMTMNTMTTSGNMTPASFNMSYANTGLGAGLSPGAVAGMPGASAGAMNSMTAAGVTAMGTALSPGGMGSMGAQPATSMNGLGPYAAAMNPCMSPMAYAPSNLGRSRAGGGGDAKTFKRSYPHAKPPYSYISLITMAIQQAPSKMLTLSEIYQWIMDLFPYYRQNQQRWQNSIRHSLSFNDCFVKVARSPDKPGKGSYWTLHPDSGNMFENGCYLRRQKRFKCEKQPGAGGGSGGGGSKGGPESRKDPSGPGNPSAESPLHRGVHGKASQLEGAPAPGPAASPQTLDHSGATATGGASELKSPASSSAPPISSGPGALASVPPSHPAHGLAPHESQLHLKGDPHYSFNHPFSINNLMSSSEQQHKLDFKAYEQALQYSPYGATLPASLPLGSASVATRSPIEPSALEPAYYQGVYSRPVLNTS
Sequence,normalised bound fraction
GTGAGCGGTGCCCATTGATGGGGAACAAATGACTTTGGGAAAAGGTTTTGGAAGATTGAGAAGAAAAAAGAGAAGGTAATTTGATGTCACCTTTTTCCTGAGAGAATGAAGGTATCCTTGTTTACTTTAAAAAAAAAAAAAAAAAGAGGCGGGGGAGTTGGGGGATGAATTGGTGTTGGAACTTGTCTTGGAAAAAGTTGTTAATTTAGTTTGGGGACATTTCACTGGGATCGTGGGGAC,0.35 ratio
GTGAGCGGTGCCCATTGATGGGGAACTGAAATTTAGGAAAAGTTAATATGAATGAGAGAAAAATAACCAAAAAGAAATAGCAATTATTCCTTACTAATGTTATTTTTCTGCCTGCAAAGTAAACATGGTAAAAGAAATTTTTCACTTTAAGTTATGAAAGTTGACACTATTATCTATAATTTTTACATGTGCCTCTATTATATGTCCTCTAGTCTTTCATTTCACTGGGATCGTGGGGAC,0.401 ratio
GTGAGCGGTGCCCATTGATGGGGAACGTGTGCTAGCCTGTGAGTTTTTCTCTCCAACTAGCCTGGGTACTCAGGAAAGTGAGATTTGGGTGTAGCCAACTTCTGGGTGGCCTGACCTGTGCAAATAGGGGAGACAGTTGACATACAGATGAAAGGGGAGATGGGAAGCCATACAGAGGAAGGAGAAGATCAGGAACCAGAGATAAGATAATTCTGTAAATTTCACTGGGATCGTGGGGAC,0.201 ratio
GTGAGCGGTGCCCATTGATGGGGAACATCTTCCCCCTCTTCCTTGCCCCACCAGCTCACCTTCCCGGGTTGTTTACTTTGAGGAAAATAAATAAAGCCGGCATTCGTTAACCCTCTTCTGGCGCAAACTGCTGTTTGCTCTGGATGAATCATGGTCCTTTGGCGACGCCAGGCTCCGGGAGAGCAAAGCACCGTGTCAGGGCCATGATCCGGGGTGGCCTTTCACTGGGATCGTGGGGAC,0.363 ratio
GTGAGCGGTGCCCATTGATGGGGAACGTAGCCTTTTTCAGATTTCATCAAATATGGTGTTAGGGGGCCCTCATTTGTCCACAAAAAATATGGTGACAAGGGATGATGACGTGAGTCAGAGTAATCTCCATTTACTCACTTTGCGTCACTGTTTATTAGAAGGGCTGTTCGGACTTTCTAGTTGCCAAACTGGACCGTGTATGCTCTCTGAAGAGCGGGCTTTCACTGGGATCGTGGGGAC,-0.00352 ratio
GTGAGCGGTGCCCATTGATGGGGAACTAAACATGCTATGAACCAGTGCTAAGTTATACACCAGGCTGGCTTCAAAAATGATTATCAAACTGTGTAGGGATAACTGAAACCAGTAACAGAGTAATCTCTGTGTTAGGATAATAGGGTGCTGACAGGGCGAATGCCTTCCAGCTGAATCATTTTTCCATTCCTGGAATGTTTTGAAATGGAGAATTAAGCATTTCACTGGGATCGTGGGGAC,-0.0332 ratio
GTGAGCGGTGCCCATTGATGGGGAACCATTTGCCTCCGTCCCCACCCCCAGCCTGCTGCCTCTCAGGTTCACACTTCCTGGGCTCAGAGTTTCATCCTGAGGCTGTTGGCTCAGCCAGAGCAAACAGAGACAGCACTAAAGTCAACAAAACCAGAGAGCAAGCAGCGCAGGTGACGTGGAAAAGAAAACTTGGAAGCCACAACAAAGGCATGTGGGCTGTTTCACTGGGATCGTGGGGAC,0.437 ratio
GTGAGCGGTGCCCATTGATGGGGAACGTCCTTAATGTGTTTGTTTTTAGGACTCAAAAACGAGTCTTGAATCTTTAGAAAAGTAGAAAAATTCTCTCCTACATGCCAACAATTTTGCATGTTTACACTGTCCAATTTACATTTTTTCAAGGTATTAGTGCAAAAAGATAGTGAGAAGTGGGTAATTTGTTTATTTCTAAACAAAAAATCCTCACAGATTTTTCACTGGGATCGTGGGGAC,0.505 ratio

# Block 2
# Target: Interferon regulatory factor 7, full length, phosphomimetic (IRF7, Homo sapiens, UniProt Q92985, residues 1-503, S101K/S471D/S472D/S475D/S476D/S477D/S483D/S484D/S487D)
# Method: protein-binding microarray
# Molecule type: double-stranded DNA, one strand shown
# Sample: in vitro
# Concentration: 250 nM
# Notes: 60-bp whole probe
# With: salmon DNA 0.4 mg/ml
# Baseline: random background probes
# Reading: higher = stronger binding
# Shared flanks, not repeated: GCCTAGCAC … GTCTTGATTCGCTTGACGCTGCTG
# Construct (chain): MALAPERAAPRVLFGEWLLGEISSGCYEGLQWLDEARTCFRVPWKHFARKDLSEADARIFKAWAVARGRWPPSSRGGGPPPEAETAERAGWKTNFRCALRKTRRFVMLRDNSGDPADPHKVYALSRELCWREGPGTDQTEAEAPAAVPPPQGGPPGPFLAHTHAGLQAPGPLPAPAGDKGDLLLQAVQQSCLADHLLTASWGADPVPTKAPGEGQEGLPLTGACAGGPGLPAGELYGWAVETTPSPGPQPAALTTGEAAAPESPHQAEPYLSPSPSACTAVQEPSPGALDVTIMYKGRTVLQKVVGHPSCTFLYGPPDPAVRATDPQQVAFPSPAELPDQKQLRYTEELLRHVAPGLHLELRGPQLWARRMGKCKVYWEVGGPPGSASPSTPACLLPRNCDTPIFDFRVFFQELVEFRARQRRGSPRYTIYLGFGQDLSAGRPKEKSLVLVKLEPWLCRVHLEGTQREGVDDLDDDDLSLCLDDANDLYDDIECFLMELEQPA
Sequence,log fluorescence [z-score]
GACGATATCAGTATCGCGACGTGCTAG,-0.159
TTAGGGCTGCTTCTCCTTTAGTGCTAG,-0.561
GAAGTTCTAAATATCTTTGTGTGCTAG,-0.314
GACGGACTGGGTATCGGGAAGTGCTAG,-0.625
TTAGATCTAAGTTTCGATTAGTGCTAG,8.79
TTAAAACTGGGGTATCGATTAGTGCTA,0.446
GACGATTTCGGGTATCGGGACGTGCTA,0.701
TCATCATTCCAATTCTTACTGTGCTAG,0.548
GACGAACTGGGGATTGGAGACGTGCTA,-0.556
TCAGTTCTGCTTCTTAGACTGTGCTAG,1.11
GCTAGTTCAGTTCTCTAGAAGTGCTAG,-0.0746
GACCGTCTCCTTCTCCTGACGTGCTAG,0.617
TAGACCTAGAAAGAAACCACGTGCTAG,1.08
TTAGGTTTCCTGCTGCTTTAGTGCTAG,0.708
GATGGTTTCGGTATCGGGACGTGCTAG,11.4
GACGGTATCTGTTTCGGGACGTGCTAG,1.7
GACGGTTTCGGTATCAGGACGTGCTAG,10.1
TTATAACTGGGGTTTCGATTAGTGCTA,6.17
ATCATTTTTGCTTACGATGCGTGCTAG,0.574
GACGGACTGGACCTTCGGGACGTGCTA,-0.899
GACGATTCCAGTTTCAAGACGTGCTAG,1.14
GACGGTACCGGGTTTCGGGACGTGCTA,2.52
TTGTGTCTGGGCATTTTTTTTGTGCTA,-0.999
TCAGTCTTCAGGTTCTCACTGTGCTAG,-0.12
GACGGTATGGGGACTGGGGACGTGCTA,-0.373

# Block 3
# Target: Histone acetyltransferase KAT6A, winged helix 2, GST fusion (KAT6A, Homo sapiens, UniProt Q92794, residues 85-181)
# Method: protein binding microarray
# Molecule type: double-stranded DNA, one strand shown
# Sample: in vitro
# Concentration: not given
# Notes: 8-mer, flanks averaged, mean of 2 arrays, mostly near background
# Baseline: not given
# Reading: higher = stronger binding
# Residues (chain): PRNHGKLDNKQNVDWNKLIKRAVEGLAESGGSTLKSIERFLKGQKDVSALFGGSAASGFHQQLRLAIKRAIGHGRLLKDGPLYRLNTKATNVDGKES
Sequence,E-score
ACCAATGC,0.0372
ACGCTTCA,-0.0801
AAGCGGGG,-0.00951
AGAGAGCA,0.127
AGTGCTAT,-0.00112
CGGGAAGC,0.276
CCGAGATC,0.173
AAGTTTAG,0.146
CTGTTTGC,0.0535
CCCTCGCG,0.00936
ATTTCGCG,0.208
TCAGGGCA,0.117
ATAATACC,0.0105
ACATTTGA,-0.0586
AGGATGCA,0.0976
CATGAGCC,0.0138
CACTGTGG,0.0877

# Block 4
# Target: CCNB1, cyclin fold, Cln2 fusion (human)
# Method: yeast growth competition, sequencing
# Sample: yeast
# Notes: weak parent motif
# Baseline: not given
# Reading: higher = stronger binding
# Starting sequence: WEE2 docking peptide (human); KELRQKLNFSYCE
Change,normalised enrichment score
K6A,0.0339
E2A,0.587
L3A,0.228
Q5A,0.189
R4A,0.355
F9A,-0.0377

# Repeated from above (block 3):
Sequence,E-score
CCCTCGCG,0.00936
ATAATACC,0.0105
TCAGGGCA,0.117
AAGTTTAG,0.146
ACATTTGA,-0.0586
CTGTTTGC,0.0535
ACCAATGC,0.0372
AGGATGCA,0.0976
AAGCGGGG,-0.00951
